Measurements of several laboratories.
Each line is one published result; not all experiments were run side by side. Several values in a cell are separate wells, animals, samples, runs or records. Numbers after ± are the reported error.
Sequence of UniProt P81908 (whole entry, looked up): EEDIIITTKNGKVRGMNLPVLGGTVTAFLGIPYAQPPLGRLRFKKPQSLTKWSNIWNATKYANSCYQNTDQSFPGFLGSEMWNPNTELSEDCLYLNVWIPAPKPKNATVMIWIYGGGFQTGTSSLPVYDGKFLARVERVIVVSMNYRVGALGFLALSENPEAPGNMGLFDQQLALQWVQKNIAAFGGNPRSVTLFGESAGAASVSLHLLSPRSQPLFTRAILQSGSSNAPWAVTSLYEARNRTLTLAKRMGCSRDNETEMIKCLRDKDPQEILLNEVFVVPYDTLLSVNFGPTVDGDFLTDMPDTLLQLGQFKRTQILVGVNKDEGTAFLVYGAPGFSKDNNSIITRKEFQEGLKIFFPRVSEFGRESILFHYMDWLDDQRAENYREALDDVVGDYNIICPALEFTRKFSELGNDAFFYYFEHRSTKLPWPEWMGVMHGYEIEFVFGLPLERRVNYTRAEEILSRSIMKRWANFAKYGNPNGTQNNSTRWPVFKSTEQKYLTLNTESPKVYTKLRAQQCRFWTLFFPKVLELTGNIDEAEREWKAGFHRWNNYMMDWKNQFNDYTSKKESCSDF
Sequence of UniProt O15379 (whole entry, looked up): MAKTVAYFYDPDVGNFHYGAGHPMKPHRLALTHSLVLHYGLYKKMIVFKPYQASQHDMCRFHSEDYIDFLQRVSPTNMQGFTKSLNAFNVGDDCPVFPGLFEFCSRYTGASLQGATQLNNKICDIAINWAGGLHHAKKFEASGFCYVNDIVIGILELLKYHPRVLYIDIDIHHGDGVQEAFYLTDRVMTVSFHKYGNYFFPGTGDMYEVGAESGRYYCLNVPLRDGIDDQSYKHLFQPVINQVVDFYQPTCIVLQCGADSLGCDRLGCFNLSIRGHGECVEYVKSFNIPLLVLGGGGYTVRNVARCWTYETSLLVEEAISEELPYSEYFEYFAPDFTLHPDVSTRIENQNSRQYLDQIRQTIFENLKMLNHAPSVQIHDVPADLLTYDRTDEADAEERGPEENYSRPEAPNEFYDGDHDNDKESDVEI
Sequence of UniProt O35433 (whole entry, looked up): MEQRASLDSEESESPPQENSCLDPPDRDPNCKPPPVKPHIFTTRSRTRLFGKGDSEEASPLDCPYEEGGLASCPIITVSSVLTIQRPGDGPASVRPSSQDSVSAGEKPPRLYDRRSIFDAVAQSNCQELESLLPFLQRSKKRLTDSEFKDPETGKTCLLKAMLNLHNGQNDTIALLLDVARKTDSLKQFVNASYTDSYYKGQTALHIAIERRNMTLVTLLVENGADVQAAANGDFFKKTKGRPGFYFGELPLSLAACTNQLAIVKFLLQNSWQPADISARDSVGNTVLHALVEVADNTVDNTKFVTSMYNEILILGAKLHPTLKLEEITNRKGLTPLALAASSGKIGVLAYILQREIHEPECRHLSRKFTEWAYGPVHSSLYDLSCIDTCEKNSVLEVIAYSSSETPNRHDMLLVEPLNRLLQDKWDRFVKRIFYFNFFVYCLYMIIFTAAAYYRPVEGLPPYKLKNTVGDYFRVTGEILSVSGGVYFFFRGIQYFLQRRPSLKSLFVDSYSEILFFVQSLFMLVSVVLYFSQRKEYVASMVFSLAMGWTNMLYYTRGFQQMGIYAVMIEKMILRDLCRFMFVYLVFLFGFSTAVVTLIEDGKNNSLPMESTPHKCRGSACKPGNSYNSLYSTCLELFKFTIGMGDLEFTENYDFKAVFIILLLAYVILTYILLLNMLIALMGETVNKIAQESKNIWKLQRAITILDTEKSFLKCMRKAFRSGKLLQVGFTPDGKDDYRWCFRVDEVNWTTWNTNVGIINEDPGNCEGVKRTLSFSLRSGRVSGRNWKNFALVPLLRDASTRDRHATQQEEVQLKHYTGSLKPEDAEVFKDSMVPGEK
Sequence of UniProt P09483 (whole entry, looked up): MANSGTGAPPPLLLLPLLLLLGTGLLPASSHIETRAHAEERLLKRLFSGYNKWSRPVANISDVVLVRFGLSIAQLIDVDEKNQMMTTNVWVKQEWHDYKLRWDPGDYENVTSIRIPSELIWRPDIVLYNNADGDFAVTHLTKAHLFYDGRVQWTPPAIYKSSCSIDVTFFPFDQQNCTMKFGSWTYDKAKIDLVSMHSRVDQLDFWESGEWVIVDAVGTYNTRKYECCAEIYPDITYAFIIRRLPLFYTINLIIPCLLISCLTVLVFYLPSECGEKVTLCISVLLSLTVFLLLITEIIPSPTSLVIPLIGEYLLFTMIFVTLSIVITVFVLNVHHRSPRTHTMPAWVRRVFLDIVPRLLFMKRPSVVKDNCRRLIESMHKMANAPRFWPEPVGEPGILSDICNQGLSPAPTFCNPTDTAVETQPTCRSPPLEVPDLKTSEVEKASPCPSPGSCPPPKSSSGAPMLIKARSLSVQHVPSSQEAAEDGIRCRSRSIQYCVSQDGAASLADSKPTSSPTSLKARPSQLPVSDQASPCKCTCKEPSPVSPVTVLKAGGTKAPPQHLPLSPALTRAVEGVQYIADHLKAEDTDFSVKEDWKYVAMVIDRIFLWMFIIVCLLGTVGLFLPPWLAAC
Sequence of UniProt P06873 (whole entry, looked up): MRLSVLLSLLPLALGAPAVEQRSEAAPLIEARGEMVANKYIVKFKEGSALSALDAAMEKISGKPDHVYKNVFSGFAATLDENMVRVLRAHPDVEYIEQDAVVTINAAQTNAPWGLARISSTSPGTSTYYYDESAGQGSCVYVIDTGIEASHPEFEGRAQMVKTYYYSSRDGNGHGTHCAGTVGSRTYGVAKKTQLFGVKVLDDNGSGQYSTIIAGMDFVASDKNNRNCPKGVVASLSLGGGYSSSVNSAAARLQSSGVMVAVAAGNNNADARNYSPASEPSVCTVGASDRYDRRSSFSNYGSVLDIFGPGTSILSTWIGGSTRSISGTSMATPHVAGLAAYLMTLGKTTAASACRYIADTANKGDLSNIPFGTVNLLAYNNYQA
Sequence of UniProt P42685 (whole entry, looked up): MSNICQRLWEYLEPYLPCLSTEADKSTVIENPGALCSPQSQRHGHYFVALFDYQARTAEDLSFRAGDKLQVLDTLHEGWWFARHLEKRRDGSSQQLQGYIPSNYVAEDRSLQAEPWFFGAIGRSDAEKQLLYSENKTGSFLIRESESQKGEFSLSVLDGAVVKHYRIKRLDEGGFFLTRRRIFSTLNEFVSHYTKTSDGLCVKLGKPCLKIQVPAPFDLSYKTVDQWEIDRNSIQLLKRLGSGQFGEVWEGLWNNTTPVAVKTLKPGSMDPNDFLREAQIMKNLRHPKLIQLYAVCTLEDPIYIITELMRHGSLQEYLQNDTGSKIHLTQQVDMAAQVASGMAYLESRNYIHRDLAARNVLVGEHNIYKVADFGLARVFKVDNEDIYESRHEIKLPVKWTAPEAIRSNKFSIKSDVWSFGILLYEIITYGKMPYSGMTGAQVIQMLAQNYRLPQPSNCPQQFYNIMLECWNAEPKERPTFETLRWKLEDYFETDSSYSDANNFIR
Sequence of UniProt Q9Y6E0 (whole entry, looked up): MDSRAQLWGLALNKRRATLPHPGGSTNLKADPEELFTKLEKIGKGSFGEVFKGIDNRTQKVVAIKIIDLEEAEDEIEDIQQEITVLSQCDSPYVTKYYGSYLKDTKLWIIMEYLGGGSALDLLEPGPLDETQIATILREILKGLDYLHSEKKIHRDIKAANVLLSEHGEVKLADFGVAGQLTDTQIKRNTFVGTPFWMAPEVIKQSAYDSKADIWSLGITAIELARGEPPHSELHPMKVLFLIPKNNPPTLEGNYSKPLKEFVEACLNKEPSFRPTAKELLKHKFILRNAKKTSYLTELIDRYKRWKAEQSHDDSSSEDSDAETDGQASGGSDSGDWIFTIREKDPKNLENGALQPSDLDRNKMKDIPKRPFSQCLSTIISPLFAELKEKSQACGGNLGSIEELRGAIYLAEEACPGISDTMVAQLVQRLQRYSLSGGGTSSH
Sequence of UniProt P10275 (whole entry, looked up): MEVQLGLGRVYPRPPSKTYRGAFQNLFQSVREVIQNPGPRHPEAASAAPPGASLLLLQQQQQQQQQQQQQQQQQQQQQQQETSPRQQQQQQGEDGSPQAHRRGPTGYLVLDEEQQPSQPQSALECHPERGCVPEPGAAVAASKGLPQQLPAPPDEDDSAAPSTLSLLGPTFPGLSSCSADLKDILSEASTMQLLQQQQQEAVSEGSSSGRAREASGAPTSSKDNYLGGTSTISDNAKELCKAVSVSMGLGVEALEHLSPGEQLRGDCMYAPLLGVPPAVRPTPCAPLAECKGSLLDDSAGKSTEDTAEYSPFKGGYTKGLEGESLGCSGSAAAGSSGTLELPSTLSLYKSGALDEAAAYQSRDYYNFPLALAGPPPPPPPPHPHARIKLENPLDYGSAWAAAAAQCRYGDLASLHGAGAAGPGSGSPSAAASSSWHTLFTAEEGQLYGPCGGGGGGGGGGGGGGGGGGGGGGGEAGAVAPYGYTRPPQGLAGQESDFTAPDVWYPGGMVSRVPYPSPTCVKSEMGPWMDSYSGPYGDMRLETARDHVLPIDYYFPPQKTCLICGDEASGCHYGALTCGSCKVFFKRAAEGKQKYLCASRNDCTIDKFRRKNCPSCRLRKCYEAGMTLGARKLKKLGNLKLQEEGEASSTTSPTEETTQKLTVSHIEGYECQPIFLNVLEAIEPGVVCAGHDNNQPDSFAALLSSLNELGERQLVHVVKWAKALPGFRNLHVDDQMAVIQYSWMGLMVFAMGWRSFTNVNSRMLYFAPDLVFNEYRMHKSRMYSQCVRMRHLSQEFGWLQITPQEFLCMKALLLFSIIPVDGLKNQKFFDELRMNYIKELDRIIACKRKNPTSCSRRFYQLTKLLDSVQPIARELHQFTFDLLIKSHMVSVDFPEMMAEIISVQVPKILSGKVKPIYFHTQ
Sequence of UniProt O35678 (whole entry, looked up): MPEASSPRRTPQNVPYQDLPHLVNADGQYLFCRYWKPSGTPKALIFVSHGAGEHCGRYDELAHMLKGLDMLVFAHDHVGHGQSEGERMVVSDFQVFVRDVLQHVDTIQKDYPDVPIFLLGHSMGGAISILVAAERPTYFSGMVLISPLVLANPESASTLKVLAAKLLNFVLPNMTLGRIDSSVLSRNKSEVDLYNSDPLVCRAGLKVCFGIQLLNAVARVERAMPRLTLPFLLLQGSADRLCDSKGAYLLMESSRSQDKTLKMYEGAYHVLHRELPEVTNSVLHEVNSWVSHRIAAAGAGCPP

Structure (SMILES) | tested on | test | test system | conditions | quantity | value
Nc1ncnc2c1c(-c1cnc3[nH]ccc3c1)nn2C1CCCC1 | STK24 (Homo sapiens, UniProt Q9Y6E0) | enzyme activity, inhibitor, radiometric | – | – | IC50 | 0.086 µM
O=C(O)c1ccccc1Nc1ccc(Cc2ccccc2)cc1 | Androgen receptor (AR, Homo sapiens, UniProt P10275) | reporter gene, antagonist, MMTV-Luc reporter | MDA-kb2 | 20 h, with: 8 nM DHT (EC90) | IC50 | > 100 µM
O=C(O)CNCP(=O)(O)O | EPSPS, Arabidopsis thaliana, wild type | enzyme activity | plant extract | – | IC50 | 16.1 ± 2.6 µM
c1ccc(OCC2CCCN2)nc1 (stereo not drawn) | Neuronal acetylcholine receptor; alpha4/beta2 (Rattus norvegicus, UniProt P09483+P12390) | ligand displacement, radioligand | – | cell membranes | IC50 | 115 µM
Nc1ncnc2c1ncn2[C@@H]1O[C@H](COP(=O)(O)OP(=O)(O)C(Cl)(Cl)P(=O)(O)O)[C@@H](O)[C@H]1O | FRK (Homo sapiens, UniProt P42685) | enzyme activity, inhibitor, radiometric | – | – | IC50 | 0.11 µM
CCCCCCCC(=O)SCC/C=C/[C@@H]1CC(=O)NCc2nc(cs2)C2=N[C@@](C)(CS2)C(=O)N[C@@H](C(C)C)C(=O)N1 | Histone deacetylase 3, with NCoR2 peptide (HDAC3, Homo sapiens, UniProt O15379) | inhibitor | – | – | IC50 | > 3 µM
Cc1cccc(C)c1OCC(=O)N[C@@H](Cc1ccccc1)[C@@H](O)C[C@H](Cc1ccccc1)NC(=O)[C@H](C(C)C)N1CCCNC1=O | Replicase polyprotein 1ab, main protease (Feline coronavirus, UniProt Q98VG9) | enzyme activity, inhibitor, FRET | – | – | IC50 | 225 µM
CC(C)(O/N=C(\C(=O)N[C@@H]1C(=O)N2C(C(=O)[O-])=C(C[n+]3ccccc3)CS[C@H]12)c1csc(N)n1)C(=O)O | PA3047 (Pseudomonas aeruginosa, UniProt Q9HZG1) | binding, Bocillin FL competition | Pseudomonas aeruginosa 1771 membranes | PBP 4, with: Bocillin FL 100 µM | IC50 | 2.93 µM
C/C=C1\NC(=O)[C@@H](NC(=O)[C@@H](NC(=O)C/C(=C/Cl)CC)C(C)C)[C@@H](C)OC(=O)[C@H](C(C)C)NC(=O)[C@H](Cc2ccc(O)cc2)N(C)C(=O)[C@H](Cc2ccccc2)N2C(=O)[C@H](CC[C@H]2O)NC1=O | Proteinase K (PROK, Engyodontium album, UniProt P06873) | enzyme activity, inhibitor, fluorescence | – | pH 7.4 | IC50 | > 5 µM
O=C(NCCCCCCn1ccc2ccc(F)cc21)Oc1ccccc1 | Cholinesterase (BCHE, Equus caballus, UniProt P81908) | enzyme activity, inhibitor, HPLC | – | – | IC50 | 3.3 µM and ~4 µM
O=C1Nc2ccc3ncsc3c2/C1=C/Nc1ccc(S(=O)(=O)Nc2ccccn2)cc1 | Putative glycogen synthase kinase (Leishmania major, UniProt Q4QE15) | enzyme activity, inhibitor | – | 90 min, 30 °C, with: ATP 2 µM | IC50 | 0.84 µM
CN[C@@](C)(C[18F])C(=O)O | – | – | SCID mouse SK-OV-3 xenograft, muscle | 60 min, post injection | tissue uptake | 0.7 ± 0.1 %ID/g
COc1ccc(NC(=O)N2CCCCN3[C@H](COCCC(=O)O)[C@H](c4ccc(C#Cc5ccccc5)cc4)[C@@H]3C2)cc1 | Phenylalanine--tRNA ligase alpha subunit (Plasmodium falciparum, UniProt Q8I246) | aminoacylation activity, inhibitor | – | – | IC50 | 0.029 µM
CN1C(=O)[C@]23SS[C@@]1(C)C(=O)N2[C@H]1Nc2ccccc2[C@@]1([C@@]12c4ccccc4N[C@@H]1N1C(=O)[C@@]4(C)SS[C@]1(C(=O)N4C)[C@H]2O)[C@@H]3O | EZH2 (Homo sapiens, UniProt Q15910) | methyltransferase activity, inhibitor | – | with: 1 µM [3H]SAM | IC50 | > 10 µM
O=C(OC(C(F)(F)F)C(F)(F)F)N1CCC(C(O)(c2ccc3c(c2)OCO3)c2ccc3c(c2)OCO3)CC1 | Mgll (Mus musculus, UniProt O35678) | competitive ABPP | mouse brain membrane proteome | with: FP-Rh probe | IC50 | 0.015 µM
O=C(O)C(=O)CBr | HDAC1 (Homo sapiens, UniProt Q13547) | enzyme activity, inhibitor | – | – | IC50 | 20 µM
C=CC=O | Thioredoxin reductase 2, mitochondrial, α-methylselenocysteine semisynthetic variant (Txnrd2, Mus musculus, UniProt Q9JLT4) | enzyme activity, inhibitor | – | 10 min, pH 7, 22 °C, pre-reduced enzyme, with: Trx 150 µM | IC50 | 0.057 µM
[Ni+2] | Trpv1 (Rattus norvegicus, UniProt O35433) | transporter uptake, inhibitor, radiometric | – | – | IC50 | 62 µM

Excerpt of the above:
Structure (SMILES) | tested on | test | test system | conditions | quantity | value
c1ccc(OCC2CCCN2)nc1 (stereo not drawn) | Neuronal acetylcholine receptor; alpha4/beta2 (Rattus norvegicus, UniProt P09483+P12390) | ligand displacement, radioligand | – | cell membranes | IC50 | 115 µM
